{"data": "Experimental data of several laboratories", "note": "Numbered parts are unrelated; each lists some results of a single study.", "sequence of UniProt Q15569 (whole entry, looked up)": "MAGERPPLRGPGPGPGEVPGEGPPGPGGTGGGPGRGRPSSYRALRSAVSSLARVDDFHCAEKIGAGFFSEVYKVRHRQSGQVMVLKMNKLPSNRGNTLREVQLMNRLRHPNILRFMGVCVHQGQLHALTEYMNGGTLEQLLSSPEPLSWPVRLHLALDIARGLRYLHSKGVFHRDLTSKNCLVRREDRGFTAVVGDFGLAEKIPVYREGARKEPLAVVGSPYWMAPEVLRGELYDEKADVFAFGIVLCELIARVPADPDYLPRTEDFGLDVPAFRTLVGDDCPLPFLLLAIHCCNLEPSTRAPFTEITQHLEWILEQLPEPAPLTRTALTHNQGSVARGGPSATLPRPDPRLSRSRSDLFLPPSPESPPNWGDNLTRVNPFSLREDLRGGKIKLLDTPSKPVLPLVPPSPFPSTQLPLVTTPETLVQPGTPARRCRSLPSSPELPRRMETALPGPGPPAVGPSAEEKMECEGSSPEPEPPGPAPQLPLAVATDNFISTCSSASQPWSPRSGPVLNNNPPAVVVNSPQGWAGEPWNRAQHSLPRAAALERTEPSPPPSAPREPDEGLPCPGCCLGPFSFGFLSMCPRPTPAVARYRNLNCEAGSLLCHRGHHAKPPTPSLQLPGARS", "sequence of UniProt Q9NQU5 (whole entry, looked up)": "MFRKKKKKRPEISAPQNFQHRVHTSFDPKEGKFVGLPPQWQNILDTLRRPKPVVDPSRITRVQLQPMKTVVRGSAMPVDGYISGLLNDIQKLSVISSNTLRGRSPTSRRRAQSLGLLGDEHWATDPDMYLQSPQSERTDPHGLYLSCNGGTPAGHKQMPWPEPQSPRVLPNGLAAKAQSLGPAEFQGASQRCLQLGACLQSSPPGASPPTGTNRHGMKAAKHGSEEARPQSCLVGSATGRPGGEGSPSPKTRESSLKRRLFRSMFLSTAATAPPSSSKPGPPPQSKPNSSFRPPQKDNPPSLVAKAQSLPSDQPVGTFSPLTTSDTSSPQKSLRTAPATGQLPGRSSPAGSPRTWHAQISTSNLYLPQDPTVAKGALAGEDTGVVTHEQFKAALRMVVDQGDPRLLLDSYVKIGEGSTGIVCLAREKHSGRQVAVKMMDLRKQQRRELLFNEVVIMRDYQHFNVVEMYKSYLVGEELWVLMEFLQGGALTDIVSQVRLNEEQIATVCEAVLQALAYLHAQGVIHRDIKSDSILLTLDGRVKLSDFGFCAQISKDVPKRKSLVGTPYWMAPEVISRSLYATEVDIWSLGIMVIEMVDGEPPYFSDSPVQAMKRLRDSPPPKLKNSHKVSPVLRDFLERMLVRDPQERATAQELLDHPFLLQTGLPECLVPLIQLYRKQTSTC", "sequence of UniProt P48730 (whole entry, looked up)": "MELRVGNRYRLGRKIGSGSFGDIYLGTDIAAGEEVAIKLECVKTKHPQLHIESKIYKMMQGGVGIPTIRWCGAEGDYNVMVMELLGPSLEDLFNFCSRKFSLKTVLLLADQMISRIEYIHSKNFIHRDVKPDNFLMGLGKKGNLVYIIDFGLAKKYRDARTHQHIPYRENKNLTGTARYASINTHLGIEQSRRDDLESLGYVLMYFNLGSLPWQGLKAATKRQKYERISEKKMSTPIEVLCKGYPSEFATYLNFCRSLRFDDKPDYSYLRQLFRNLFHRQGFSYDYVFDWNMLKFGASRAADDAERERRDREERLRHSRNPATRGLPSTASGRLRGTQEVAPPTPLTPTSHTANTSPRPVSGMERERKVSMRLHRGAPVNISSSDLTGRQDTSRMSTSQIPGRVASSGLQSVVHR", "sequence of UniProt Q9HBY8 (whole entry, looked up)": "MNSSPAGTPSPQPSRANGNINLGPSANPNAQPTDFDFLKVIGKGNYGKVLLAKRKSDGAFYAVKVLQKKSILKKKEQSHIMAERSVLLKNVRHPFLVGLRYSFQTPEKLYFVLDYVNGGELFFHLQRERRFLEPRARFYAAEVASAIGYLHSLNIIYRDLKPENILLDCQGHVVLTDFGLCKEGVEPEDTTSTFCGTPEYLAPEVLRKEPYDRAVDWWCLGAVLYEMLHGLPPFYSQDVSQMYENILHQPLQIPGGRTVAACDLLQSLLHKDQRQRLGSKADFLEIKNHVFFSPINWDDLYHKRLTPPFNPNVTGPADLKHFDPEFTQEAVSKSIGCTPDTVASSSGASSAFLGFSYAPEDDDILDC", "sequence of UniProt P08069 (whole entry, looked up)": "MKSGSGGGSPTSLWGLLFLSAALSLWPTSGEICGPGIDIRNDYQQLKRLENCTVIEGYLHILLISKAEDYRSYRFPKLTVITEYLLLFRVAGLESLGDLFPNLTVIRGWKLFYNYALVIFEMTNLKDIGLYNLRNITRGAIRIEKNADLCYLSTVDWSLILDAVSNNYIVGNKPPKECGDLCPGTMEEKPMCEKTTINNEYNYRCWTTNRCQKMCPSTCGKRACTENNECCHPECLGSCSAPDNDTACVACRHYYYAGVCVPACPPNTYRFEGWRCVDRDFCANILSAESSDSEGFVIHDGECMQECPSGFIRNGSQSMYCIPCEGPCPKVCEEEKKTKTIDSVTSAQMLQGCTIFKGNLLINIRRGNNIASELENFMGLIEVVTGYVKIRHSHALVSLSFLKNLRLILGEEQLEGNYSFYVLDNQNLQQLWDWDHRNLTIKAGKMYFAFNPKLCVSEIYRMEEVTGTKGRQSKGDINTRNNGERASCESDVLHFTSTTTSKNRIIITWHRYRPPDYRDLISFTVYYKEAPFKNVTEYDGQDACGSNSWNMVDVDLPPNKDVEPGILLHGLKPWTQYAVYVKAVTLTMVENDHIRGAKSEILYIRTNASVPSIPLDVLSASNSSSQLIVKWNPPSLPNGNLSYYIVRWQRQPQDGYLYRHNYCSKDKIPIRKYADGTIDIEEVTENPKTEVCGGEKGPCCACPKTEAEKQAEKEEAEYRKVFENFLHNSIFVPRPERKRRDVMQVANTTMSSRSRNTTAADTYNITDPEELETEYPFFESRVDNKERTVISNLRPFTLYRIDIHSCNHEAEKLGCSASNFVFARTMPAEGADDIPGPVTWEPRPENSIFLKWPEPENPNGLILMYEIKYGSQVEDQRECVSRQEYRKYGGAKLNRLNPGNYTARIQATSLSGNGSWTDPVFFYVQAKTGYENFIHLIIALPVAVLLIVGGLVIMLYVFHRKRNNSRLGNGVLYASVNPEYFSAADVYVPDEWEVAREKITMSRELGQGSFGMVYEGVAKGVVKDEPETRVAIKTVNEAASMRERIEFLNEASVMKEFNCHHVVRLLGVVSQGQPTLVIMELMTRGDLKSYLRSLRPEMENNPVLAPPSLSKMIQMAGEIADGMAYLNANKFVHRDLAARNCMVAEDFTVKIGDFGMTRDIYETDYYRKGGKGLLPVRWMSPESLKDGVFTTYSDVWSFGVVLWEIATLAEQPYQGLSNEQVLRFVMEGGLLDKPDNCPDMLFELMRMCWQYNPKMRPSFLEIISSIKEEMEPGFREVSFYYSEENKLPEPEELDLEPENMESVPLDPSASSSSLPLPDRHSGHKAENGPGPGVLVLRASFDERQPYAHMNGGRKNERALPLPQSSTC", "sequence of UniProt P51812 (whole entry, looked up)": "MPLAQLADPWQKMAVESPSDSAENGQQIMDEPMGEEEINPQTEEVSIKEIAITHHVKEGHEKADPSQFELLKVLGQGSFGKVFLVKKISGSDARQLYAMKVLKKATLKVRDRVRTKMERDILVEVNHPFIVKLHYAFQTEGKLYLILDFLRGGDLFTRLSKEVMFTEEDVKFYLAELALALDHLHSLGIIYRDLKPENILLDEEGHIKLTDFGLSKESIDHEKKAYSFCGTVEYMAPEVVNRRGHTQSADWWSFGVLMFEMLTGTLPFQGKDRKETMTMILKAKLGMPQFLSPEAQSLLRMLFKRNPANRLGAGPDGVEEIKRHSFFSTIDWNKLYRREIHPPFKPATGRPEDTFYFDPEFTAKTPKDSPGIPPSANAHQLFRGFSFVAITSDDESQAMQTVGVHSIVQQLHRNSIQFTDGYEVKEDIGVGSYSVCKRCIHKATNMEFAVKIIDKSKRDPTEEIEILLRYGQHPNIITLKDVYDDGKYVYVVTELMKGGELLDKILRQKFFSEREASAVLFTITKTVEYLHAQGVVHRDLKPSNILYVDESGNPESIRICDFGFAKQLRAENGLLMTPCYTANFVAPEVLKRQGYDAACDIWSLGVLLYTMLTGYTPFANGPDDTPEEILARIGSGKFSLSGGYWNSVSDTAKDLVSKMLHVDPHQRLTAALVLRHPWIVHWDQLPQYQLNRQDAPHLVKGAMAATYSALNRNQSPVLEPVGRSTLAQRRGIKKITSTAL"}
{"data": "Set 1", "target": "Hepatocyte nuclear factor 3-alpha (Foxa1, Mus musculus, UniProt P35582, residues 1-468, full length assumed)", "method": "EMSA with sequencing", "form": "double-stranded DNA, one strand shown", "sample": "in vitro", "concentration": "10 and 20 nM", "notes": "whole designed probe, mean of two concentrations, ends assumed", "relative to": "negative control set to 0", "direction": "higher = stronger binding", "constant ends, left off below": "GTGAGCGGTGCCCATTGATGGGGAAC … TTTCACTGGGATCGTGGGGAC", "Target sequence (chain)": "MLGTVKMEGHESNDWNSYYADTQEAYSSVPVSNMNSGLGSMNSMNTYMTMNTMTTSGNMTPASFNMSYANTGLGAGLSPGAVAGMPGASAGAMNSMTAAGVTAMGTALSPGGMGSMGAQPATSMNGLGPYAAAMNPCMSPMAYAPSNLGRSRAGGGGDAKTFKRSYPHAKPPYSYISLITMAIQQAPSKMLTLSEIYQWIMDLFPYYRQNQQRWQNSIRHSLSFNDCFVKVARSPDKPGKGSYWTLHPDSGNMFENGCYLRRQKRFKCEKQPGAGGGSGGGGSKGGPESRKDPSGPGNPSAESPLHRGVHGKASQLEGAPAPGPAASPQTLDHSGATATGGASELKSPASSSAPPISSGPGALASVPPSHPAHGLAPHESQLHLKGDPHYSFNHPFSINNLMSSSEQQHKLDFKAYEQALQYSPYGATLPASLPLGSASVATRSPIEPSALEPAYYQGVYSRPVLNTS"}
{"Sequence": "TAATTGACAATAGTAGATGAGTTAGCCAGGAGACTAAATACAGGTGAAAGGATGACAGCGCTAGATCTTGACACAAATTACCTTAATGGCTGTGCAATTTGTAAGCTGGATACGATTTTTTGAAAACAAACCAAGCTAAACAATCCATTGAAGTGCTCTCTTCCATCTATACCCAGAAACAGCAATTTAGCTT", "normalised bound fraction [ratio]": -0.000542}
{"Sequence": "ATCTTCCCCCTCTTCCTTGCCCCACCAGCTCACCTACGGGGGTTATTTGCAGATAGGAAAATAAATAAAGCCGGCATTCGTTAACCCTCTTCACGCGCATACTGCTGTTTGCTCTGGATCTAACATGGTCCTTTGGCGACGCCAGGCTCCGGGAGAGCAAAGCACCGTGTCAGGGCCATGATCCGGGCTCGCC", "normalised bound fraction [ratio]": 0.344}
{"Sequence": "GCATGAAGCGTTGGGTCCAACTGCATGAAGAGCACTGAGTCTCTCAGAGATGAGAGCATAAATGACTCAATCTTGATAGGTCTTGGTAAGCAAAGTAATCTAGAGCACATGGAATCACCAATAATTCTGCCTTTCAGAAGGCAGGATCCCCGCTCCAGATATCAGAGCCAATGGGTCTGGAAAGGCTGCATTT", "normalised bound fraction [ratio]": -0.0683}
{"Sequence": "GGAGCAATGCCGGCTGGTGGCCTGGCCGCTCCGCCCCTTCCCTACCCCTCGCGGAGGGCCCGCCCCCTGCCCCGCGCCGGCTAGCGGAGGAGAGTAAATACAACAGGAGCGCAAAAACGCGGAACCGCCGAGCCCCGTGCACTGTGTCGCTGCCGCGGCCCCCACCGCCACCGTCTCGGAGAAAGAACCGTTT", "normalised bound fraction [ratio]": 0.231}
{"Sequence": "GGATTTTTGTTTTATCTGATTACAAAATAATACATGTTCATTAAAACACTTTAGAAGTCCCATCATGCAAGATTACTACTAAAAACCAAGATATATTTACTTTTATTTAAATATGTACAGTGTTTTACAAAATTGGGATGAATCATGATGTGCATGTATAATTTTGAATCCTCCTTTGGTCACTTAATGTCAG", "normalised bound fraction [ratio]": 0.299}
{"Sequence": "AAAGAGAAAAATAAATATCATCATGGACTTTAATGTGCACAGAAAATAAAATGTTCAATAAAAAATATTAATTATTTCTAGTTTCATGCTTTCTTGTTTACACAGGTAATATATTTCAAAATATTTTATTTACCTTTAAAATGAAAATACTAAAAAATGTATGAGAAAAGAATAGAGTAAAGTCAAGATGCTT", "normalised bound fraction [ratio]": 0.469}
{"Sequence": "GCCACAGTTCAAGTTCAAAGAGAAACACTCTAGCAACTTCTGAAAGCAGGAACTGTATGCAACTGAATGACCTCATCCGGCACAGAAGCCAGAGCAAACAATGAAAAACAAACCGTACCAACTCTGGTACCAGTTACTGACCTTCCAGACCAAGAGAACGTGCTGGCAGCACTGGTGAAATGTACTTGTCTGT", "normalised bound fraction [ratio]": 0.262}
{"Sequence": "TTTGCAGAGCTTTTCCAGTGAGAGTATCCTAGATACTTGGGGTCATGGCATTACCTTTACATTAGGGCGACAGCAGCTGCAATCTAAACAAAGTAATCTAGTCTGCTAGTGCTTGCCTCTTAAACTAGCCAGGTAGTAGGGTATTTGAGAGTTTAGATAGCCATGCATGTTATATAGGCAGGAAGCAGACAAA", "normalised bound fraction [ratio]": 0.097}
{"data": "Set 2", "Compound": "Ic1cccc(CSc2nnc(-c3ccncc3)o2)c1", "effect on": "enzyme activity", "action": "inhibitor", "concentration": "0.5 µM", "relative to": "control"}
{"target": "MAP3K20 (Homo sapiens, UniProt Q9NYL2)", "remaining activity": "96.7%"}
{"target": "RPS6KA3 (Homo sapiens, UniProt P51812)", "remaining activity": "96.4%"}
{"target": "CSNK1D (Homo sapiens, UniProt P48730)", "remaining activity": "103%"}
{"target": "IGF1R (Homo sapiens, UniProt P08069)", "remaining activity": "99.1%"}
{"target": "PAK6 (Homo sapiens, UniProt Q9NQU5)", "remaining activity": "74%"}
{"target": "SGK2 (Homo sapiens, UniProt Q9HBY8)", "remaining activity": "102%"}
{"data": "Set 3", "target": "Centromere-binding protein 1, full length, His-tagged (CBF1, Saccharomyces cerevisiae, UniProt P17106, residues 1-351)", "method": "competition protein-binding microarray", "form": "double-stranded DNA, one strand shown", "sample": "in vitro", "concentration": "2 µM", "notes": "whole 60-bp probe, lowest competitor level", "added": "Pho4 competitor, 0.05 µM", "direction": "higher = stronger binding", "constant ends, left off below": "… GTCTTGATTCGCTTGACGCTGCTG", "sequence of UniProt P17106 (whole entry, looked up)": "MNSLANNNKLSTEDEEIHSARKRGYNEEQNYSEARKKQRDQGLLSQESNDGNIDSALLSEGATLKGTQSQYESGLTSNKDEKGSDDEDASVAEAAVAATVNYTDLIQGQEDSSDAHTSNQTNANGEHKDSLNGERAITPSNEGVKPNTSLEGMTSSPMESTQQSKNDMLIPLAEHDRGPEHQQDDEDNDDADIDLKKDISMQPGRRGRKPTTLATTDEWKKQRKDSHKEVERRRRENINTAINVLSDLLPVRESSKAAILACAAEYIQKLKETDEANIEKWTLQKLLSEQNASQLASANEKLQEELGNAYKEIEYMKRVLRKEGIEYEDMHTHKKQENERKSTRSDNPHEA"}
{"Sequence": "AAATTACTAAGTTGTCTCGTGGGTGACGCCGTATGA", "fluorescence intensity [a.u.]": 103}
{"Sequence": "CGTCCTAGCGATTGACACGTGTTTTCCATGAGGAAG", "fluorescence intensity [a.u.]": 1620}
{"Sequence": "TATTTGGCCTTTTTGCACGTCGACTGGGCCATTTCC", "fluorescence intensity [a.u.]": 77.3}
{"Sequence": "ACTCCCTGCGCCTATGCCGTGCCAGAGCAAATAAAG", "fluorescence intensity [a.u.]": 80}
{"Sequence": "GTCTTGTCTCATTGTCACCTGACTTTCCCCACTTCA", "fluorescence intensity [a.u.]": 1480}
{"Sequence": "CTTCTGTAAATTTGTCGTGTGGGTGGACGCGCCCCG", "fluorescence intensity [a.u.]": 68.2}
{"Sequence": "CCTACCATTGCATCGGGCGTGATGGTACACCAACCA", "fluorescence intensity [a.u.]": 81.1}
{"Sequence": "TTCTGAATATGCGGCCACGTGTGGAATGATGTCCTG", "fluorescence intensity [a.u.]": 1020}
{"data": "Other studies, line by line"}
{"Structure (SMILES)": "C[C@@]1(Cc2ccc(C#N)cc2)C(=O)N(c2cc(Cl)cc(Cl)c2)c2ncc(C(=O)NC3(c4nc(C5CCC5)no4)CC3)n21", "target": "Dual specificity testis-specific protein kinase 1 (TESK1, Homo sapiens, UniProt Q15569)", "assay": "cell-free assay, competition with immobilised ligand", "setting": "1 µM", "endpoint": "remaining binding", "result": "100%"}
